Published values collected from several papers.
Parts stem from different laboratories: compare values within a part only. Positions count from the first letter of the parent shown.

Block 1
Target: RNA binding protein fox-1 homolog 2, RRM domain, GST-SBP tag (RBFOX2, Homo sapiens, UniProt O43251-10, residues 100-194)
Technique: RNA Bind-n-Seq
Molecule type: RNA
Matrix: in vitro
Tested at: 365 nM
Notes: natural RNA segment, single round, ends assumed
Baseline: no-protein control
Direction: higher = stronger binding
Quantity: RBNS enrichment (R)
Constant ends, left off below: GGGAGUUCUACAGUCCGACGAUC … UGGAAUUCUCGGGUGCCAA
Residues (chain): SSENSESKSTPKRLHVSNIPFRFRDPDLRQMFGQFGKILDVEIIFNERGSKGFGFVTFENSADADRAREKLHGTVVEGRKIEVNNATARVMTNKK
ACCUGCCUUUGCCACUACAUAGGCUGCCUCUGGGCUGUUGGAAGCUCUUCAGUGAGCCUAAGUCUUGGGAACUCAGCAGGCGGCACCUUCUCACACAGCAAGUCCGAGCU: 0.418
AGUUCUGUCUGCACCUGCCCUCUAGUGACCCUGGGCCUGUCCUCUGUAGAGACUCUGGUACAGAGGGCAUGGGCACCUGCAGCAUUAUAGCUGUUCUGUCUCCUGGAGAC: 0.476
GCAGGAAGGUAUAAACCGGUUAUGCACAUUGGAGCCCUUUGCUUUCACCUUACAUUCUGGAUGCAUUCAGAUCUCGGACGUCCUUAAGUGAAAUGAAUAUACAUGUCUAU: 0.64
UAUAUCUUUUCCCUGUACUCCUCAUGUACAACCAAAGAACAUACAUUAUGAAAAUUGUAUUAUAAUAUCUGGAAACACAACAUUUUCCUCUGGCAGGUGACUUUUGUACG: 0.442
AAAAAAUAAUAGUUAUCAGUAGUGUCACUGGAAAGAAGAGAGGAGGGACAAAACUGAGCAGCAGAAUUCGUAUAGACAUUUACGUUUAAAUUCUAAAAGCCCAAUUGAGA: 0.76
GCUUCUGCCUCUCCUGCCCUGAAAAGGAGGAAUGAUUGGGGCCAGCAACUUUGCUCUCCCUGCCGUGCCUCGGUGGUGCUCCUGAAUGUGGCUGACCUGGGCUGCUGGUU: 0.478
UGUGACCAGCAUGGUCCAGGAAAAAAAAAAAGACAAAAAAUCUAGAAAAUAAAAUUGGUAAAAUCUCGCUCACUGUUGUCUGUGUUUUCUGGGAACAGGAGUGGGGUGAU: 0.713
AGUAUUGCAGCCAAAGAAUAUUUAAAUAAACGUCUUUGCUGCGCUUGCAUCCAUGCCCAGCCAAUAUACAACUGUAAAGCAAAUAUAGAAAGUCGGCUGUUGAUACGAUU: 0.637
UUUCAGCUUAUGGGUAUUUAUCUUCUAUUAGUAUUUGUAUCUUCAGUUCAUUCCACUUUAGGAAACAGAGCUGCCAAUUGAAACAGAAGAAGAAAAAAAAAAAAAGCAGC: 0.678
CAAGCCUUGCGGUCCAGAUGAGCAUGCCGGAAGGUUUCCUCAUGUAGCGUUCCCACUGGAGCUGUGUGCGCGGUGUGCAAAGGCGAAAAGAUAUGUCAUAGUUGCCAUAA: 4.72
UGGUGAGAGGAGAAAGGAGCUUAUCCCCCAGACCCUGCUUUAUACCAUUCACAUCCCAGGGCUGUGUCCAGACAGCACAAAACGGCAAGGAGAGCCCAAGCCCCAAUGCC: 0.307
UUGGAGAAAUUUUAGACAGCAGCUCUGUGUUCUUUUUUUGCCGCAGCCAAUAAGAUAAUAGCAGAAUUAGCCAAUCCUAAAACCUUCUAAAGACGAUUUUUGAGCAUCCC: 0.396

Block 2
Target: Interferon regulatory factor 7, full length, phosphomimetic (IRF7, Homo sapiens, UniProt Q92985, residues 1-503, S101K/S471D/S472D/S475D/S476D/S477D/S483D/S484D/S487D)
Technique: protein-binding microarray
Molecule type: double-stranded DNA, one strand shown
Matrix: in vitro
Tested at: 250 nM
Notes: 60-bp whole probe
Added: salmon DNA 0.4 mg/ml
Baseline: random background probes
Direction: higher = stronger binding
Quantity: log fluorescence
Constant ends, left off below: GCCTAGCAC … GTCTTGATTCGCTTGACGCTGCTG
Construct (chain): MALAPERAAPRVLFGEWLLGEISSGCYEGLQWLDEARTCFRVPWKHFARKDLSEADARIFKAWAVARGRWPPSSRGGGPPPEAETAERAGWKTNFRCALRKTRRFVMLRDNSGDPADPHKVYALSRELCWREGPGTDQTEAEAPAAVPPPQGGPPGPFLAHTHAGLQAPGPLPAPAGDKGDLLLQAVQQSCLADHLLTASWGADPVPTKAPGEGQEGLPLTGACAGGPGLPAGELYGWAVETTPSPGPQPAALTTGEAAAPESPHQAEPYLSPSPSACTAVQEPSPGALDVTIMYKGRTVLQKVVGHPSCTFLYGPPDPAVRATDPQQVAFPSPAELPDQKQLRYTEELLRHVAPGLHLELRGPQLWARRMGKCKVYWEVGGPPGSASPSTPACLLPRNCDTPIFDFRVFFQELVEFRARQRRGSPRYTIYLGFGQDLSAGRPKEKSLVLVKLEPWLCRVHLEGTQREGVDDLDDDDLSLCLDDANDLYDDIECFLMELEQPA
ATCATTTTCTCTGTTCTAGAGTGCTAG: 1.97 z-score
TTAGGTTTCCTTATCGTTTAGTGCTAG: 2.88 z-score
TTAGATCTCGGTTTCGGTTAGTGCTAG: 9.05 z-score
TTAGATTTCAATTCCGATTAGTGCTAG: 0.718 z-score
GACGGTATCGGGACTGGGGAAGTGCTA: -0.177 z-score
TTAGGTTTCGACTAACGGTTAGTGCTA: 6.45 z-score
TGAGAACTGAGTATCGATTAGTGCTAG: 0.41 z-score
GACGGTATCCTTTTCCTAACGTGCTAG: 1.48 z-score
TTAGATATCAGACTCGATTAGTGCTAG: 1.32 z-score
GCCAAACACCCACATTCACCGTGCTAG: -0.103 z-score
ATTTAAGTTTCACTCTGCATGGTGCTA: 3.82 z-score
GACGATTTCAGATTGGAGACGTGCTAG: 0.267 z-score
TTAGATTTCAGACTCGATTAGTGCTAG: 1.29 z-score
AATCTTTTCACTTTCTTTAAGTGCTAG: 1.82 z-score
TTAGTACTGCTTCTCCTTTAGTGCTAG: 1.09 z-score
TTAGGTATCGGTATCCGTTAGTGCTAG: 1.98 z-score

Block 3
Organism: Saccharomyces cerevisiae
Effect on: binding
Technique: yeast competitive growth sequencing
Molecule type: peptide
Strain: cyclin A1-Cln2 strain
Matrix: peptide tiling library
Direction: direction not given
Quantity: enrichment score
RTEALEQGGLPKKLIF: -1.13
AKRSLGFLPQPVPL: -0.229
ATNSSHTDAHEILVSD: -0.0948
VLPGGVPSPGASLTSM: 0.319
NSMKELNFSHLPSNSV: 0.591
LENIEPLQVSFAVLSS: 1.62
SPPRGRRLFPPGPAGF: -0.361
YLYLLLTQSLWCRV: -1.57
NESHLDKEHDAVEVAD: 1.36
GPVKLEFDVSDGAT: 0.0577
KRCATPVIIDEILPSK: 0.525
PHKTFRKLRLFDTPHT: -2.44
RQVRRDLFAF: -1.15
EPRNLLSLFEDTLDPT: 1.45
ASVLSKPIFCFVKD: 0.492
GTPKRCLDLSNLSSGE: 0.274

Block 4
Target: TEF, bZIP domain (human)
Technique: DHFR protein complementation
Matrix: yeast
Notes: single substitutions, most at no-binding floor
Baseline: wild-type JUN-FOS pair
Direction: higher = stronger binding
Quantity: binding fitness
Starting sequence: JUN, bZIP domain (human); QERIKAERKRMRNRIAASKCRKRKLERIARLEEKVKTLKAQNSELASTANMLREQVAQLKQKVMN; partner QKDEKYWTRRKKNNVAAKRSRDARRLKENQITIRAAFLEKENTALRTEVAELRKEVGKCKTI
E32N: -1.3 natural log
A49C: -1.27 natural log
L31W: -1.5 natural log
R53P: -1.57 natural log
S47R: -1.32 natural log
Q55Y: -1.27 natural log
A46F: -1.34 natural log
V56S: -1.5 natural log
N42K: -1.53 natural log
A46W: -1.54 natural log
T37M: -1.49 natural log
K34A: -1.28 natural log
E32T: -1.35 natural log
K39L: -1.53 natural log
V35L: -1.51 natural log
T48P: -1.51 natural log

A few entries again (block 4):
T37M: -1.49 natural log
K34A: -1.28 natural log
E32T: -1.35 natural log
K39L: -1.53 natural log
V35L: -1.51 natural log
